# Results gathered from unrelated publications.
# Every numbered part comes from another study and shows a few of its results, in no order. Substitutions count along the parent as printed.

# Block 1 — technique: protein binding microarray; form: double-stranded DNA, one strand shown; matrix: in vitro; tested at: not given; baseline: not given; reading: higher = stronger binding
# Target: Histone acetyltransferase KAT6A, both winged helices, GST fusion (KAT6A, Homo sapiens, UniProt Q92794, residues 1-181)
# Notes: 8-mer, flanks averaged, mean of 2 arrays, mostly near background
# Construct (chain): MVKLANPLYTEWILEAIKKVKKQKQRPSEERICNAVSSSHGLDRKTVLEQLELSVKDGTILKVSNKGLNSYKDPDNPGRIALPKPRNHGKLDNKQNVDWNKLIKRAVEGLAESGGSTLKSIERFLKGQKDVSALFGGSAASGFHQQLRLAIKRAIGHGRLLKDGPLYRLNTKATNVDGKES
Sequence,E-score
CCGACCCA,0.103
CATTATTA,-0.0213
ACACTTCA,-0.151
CGGTGCGA,0.212
ACGACGGC,0.237
GGTGGAAA,-0.0861
CCTATGTC,-0.242
CGGGCTGC,0.12
AAAACCTC,0.0112
AGCGTGCC,0.113
CCTCTTAG,-0.163
CTAGCTCC,-0.0103
CCCGTGAC,0.236
CCACGAAC,-0.0124
AATAACAC,0.102
ATAGCCAC,-0.0858
CGGACACG,0.266
CAAGCGAC,0.159
CCACATCG,0.151
CGTAACAA,-0.0308
AGCGCATA,0.188
GGCGGGAC,0.261
TCCCTCAA,-0.0649
TTTAAAAA,-0.0309
AGTGTTAT,-0.137

# Block 2 — target: CREM, bZIP domain (human); technique: DHFR protein complementation; matrix: yeast; baseline: wild-type JUN-FOS pair; reading: higher = stronger binding
# Notes: single substitutions, most at no-binding floor
# Starting sequence: JUN, bZIP domain (human); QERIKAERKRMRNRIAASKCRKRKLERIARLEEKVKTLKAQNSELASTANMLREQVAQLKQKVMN; partner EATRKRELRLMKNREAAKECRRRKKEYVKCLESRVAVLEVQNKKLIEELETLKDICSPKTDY
Variant,binding fitness [natural log]
T48L,-1.44
L31G,-1.51
E44W,-1.44
L31P,-1.51
A40N,-1.46
V56M,-1.53
E44L,-1.43
A49R,-1.43
L38F,-1.5
S43F,-1.4
K36H,-1.43
K36L,-1.43
A49M,-1.39
E33Q,-1.43
N42H,-1.4
A29M,-1.39
E33L,-1.41
E44R,-1.42
V35H,-1.55
L38G,-1.51
A29T,-1.49
E32R,-1.45
L38H,-1.44
K34T,-1.37
R30C,-1.34

# Block 3 — technique: RNA Bind-n-Seq; form: RNA; matrix: in vitro; tested at: 200 nM; notes: whole 134-nt RNA, ends assumed; with: 150 mM LiCl; baseline: input library; reading: higher = stronger binding; each molecule: 7-deaza-guanosine replaces G
# Target: Fragile X messenger ribonucleoprotein 1, C-terminal low-complexity region (Fmr1, Mus musculus, UniProt P35922)
# Shared flanks, not repeated: GGGAGUUCUACAGUCCGACGAUC … UGGAAUUCUCGGGUGUCAAGG
Sequence,log2 enrichment
UGGGAGGUGGAUAUUGUUUAUUUUUUUAGCUCAUUUCCAGGGGUGGGAAUUUUUUUUUAAUAUGUGUCAUGAAUAAAGUUGUUUUUGAAA,-0.455
CCAGGAAGUAAAAACAAAUGGAAAUGCUUCGGAUAGUGGCAGGGGUGGGGGUUGCUAAGGAAAGGGUGGGAUGGGAGUGGGUAAAGAGUU,0.935
AGUCCUGUGCUACACAUCGUAUGUACCGAAUCGGGUUUUUUUGGGAGGGUUUUUGGGAAAGUAUUAUGUUACGCCGUUCGGAUCUGCACU,-1.45
UCCUCAAGUCCUGUGCUACACAUCGUAUGUACCGAAUCGGGGCGGCGGCGGGAAAGUAUUAUGUUACGCCGUUCGGAUCUGCACUUCCAG,0.427
CCUGUGCUACACAUCGUAUGUACCGAAUCGGGUUUUUGGGUUUUUUUGGGAAAAAAAGGGAAAGUAUUAUGUUACGCCGUUCGGAUCUGC,-1.71
UCAAGUCCUGUGCUACACAUCGUAUGUACCGAAUCGGGUUGGGGUUGGGUUGGGAAAGUAUUAUGUUACGCCGUUCGGAUCUGCACUUCC,-0.774
AAGUCCUGUGCUACACAUCGUAUGUACCGAAUCGGGAAAGGGAAAAAGGGAAAGGGAAAGUAUUAUGUUACGCCGUUCGGAUCUGCACUU,-0.498
GCAGGAAGUCAAAACAAAUGGAAAUGCUUCGGAUAGUGGCAGGGGUGGGGGUUGCUAAGGAAAGGGUGGGAUGGGAGUGGGUAAAGAGUU,1.57

# Block 4 — technique: DHFR PCA, deep sequencing; matrix: yeast; with: (+)-ABA 0.032 µM; baseline: wild-type fitted maximum; reading: higher = stronger binding
# Target: ABI1, truncated, D143A, DHFR fusion (Arabidopsis thaliana)
# Notes: methotrexate growth selection, single substitutions
# Starting sequence: PYL1, truncated, DHFR fusion (Arabidopsis thaliana); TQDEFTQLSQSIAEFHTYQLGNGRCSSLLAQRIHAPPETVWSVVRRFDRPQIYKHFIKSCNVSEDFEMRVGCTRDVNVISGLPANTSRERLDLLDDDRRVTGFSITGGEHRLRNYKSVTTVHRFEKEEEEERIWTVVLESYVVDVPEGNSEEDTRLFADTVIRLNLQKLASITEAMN
Variant,relative binding score [%]
Q10S,39.2
H122M,2.13
Y18H,26.8
V161Y,9.11
A170K,46.3
S27C,4.26
R155Q,3.06
R113P,64.3
E128Y,12.5
S140D,-1.47
V76Y,5.43
N61A,33.5
P50S,5.93
S9D,12.7
V44N,-0.545
K126E,41.8
V142F,-1.07
T17P,0.952
T106C,12.3

# Block 5 — target: CCNF, cyclin fold, Cln2 fusion (human); technique: yeast growth competition, sequencing; matrix: yeast; notes: strong parent motif; baseline: not given; reading: higher = stronger binding
# Starting sequence: PKN2 docking peptide (human); VSAVRKLDFSDTM
Variant,normalised enrichment score
VSAVRKLDFSDLM [T12L],7.25
VSAVRKLDFSATM [D11A],7.56
VSAVHKLDFSDTM [R5H],0.603
VSEVRKLDFSDTM [A3E],3.58
VSAVFKLDFSDTM [R5F],0.0569
VSCVRKLDFSDTM [A3C],6.83
VSAVRKLDFSDVM [T12V],6.49
VSAVVKLDFSDTM [R5V],1.61
VSAVRKLQFSDTM [D8Q],7.77
VSANRKLDFSDTM [V4N],7.24
VSAVRKRDFSDTM [L7R],0.23
VSAVRCLDFSDTM [K6C],6.52
VSAVMKLDFSDTM [R5M],1.48
VSAVNKLDFSDTM [R5N],0.295
VSAVRKLDFSSTM [D11S],7.32
VSAVRKLDKSDTM [F9K],0.314

# A few entries again (block 2):
Variant,binding fitness [natural log]
A29T,-1.49
A49M,-1.39
V56M,-1.53
T48L,-1.44
L38H,-1.44
A29M,-1.39
L31G,-1.51
A40N,-1.46
V35H,-1.55
A49R,-1.43
